Measured values from different studies.
Lines come from different studies, so protocols differ. Several values in a cell are separate wells, animals, samples, runs or records.
RET: Proto-oncogene tyrosine-protein kinase receptor Ret (RET, Homo sapiens, UniProt P07949)
UniProt P07949, sequence (whole entry, unmodified, looked up): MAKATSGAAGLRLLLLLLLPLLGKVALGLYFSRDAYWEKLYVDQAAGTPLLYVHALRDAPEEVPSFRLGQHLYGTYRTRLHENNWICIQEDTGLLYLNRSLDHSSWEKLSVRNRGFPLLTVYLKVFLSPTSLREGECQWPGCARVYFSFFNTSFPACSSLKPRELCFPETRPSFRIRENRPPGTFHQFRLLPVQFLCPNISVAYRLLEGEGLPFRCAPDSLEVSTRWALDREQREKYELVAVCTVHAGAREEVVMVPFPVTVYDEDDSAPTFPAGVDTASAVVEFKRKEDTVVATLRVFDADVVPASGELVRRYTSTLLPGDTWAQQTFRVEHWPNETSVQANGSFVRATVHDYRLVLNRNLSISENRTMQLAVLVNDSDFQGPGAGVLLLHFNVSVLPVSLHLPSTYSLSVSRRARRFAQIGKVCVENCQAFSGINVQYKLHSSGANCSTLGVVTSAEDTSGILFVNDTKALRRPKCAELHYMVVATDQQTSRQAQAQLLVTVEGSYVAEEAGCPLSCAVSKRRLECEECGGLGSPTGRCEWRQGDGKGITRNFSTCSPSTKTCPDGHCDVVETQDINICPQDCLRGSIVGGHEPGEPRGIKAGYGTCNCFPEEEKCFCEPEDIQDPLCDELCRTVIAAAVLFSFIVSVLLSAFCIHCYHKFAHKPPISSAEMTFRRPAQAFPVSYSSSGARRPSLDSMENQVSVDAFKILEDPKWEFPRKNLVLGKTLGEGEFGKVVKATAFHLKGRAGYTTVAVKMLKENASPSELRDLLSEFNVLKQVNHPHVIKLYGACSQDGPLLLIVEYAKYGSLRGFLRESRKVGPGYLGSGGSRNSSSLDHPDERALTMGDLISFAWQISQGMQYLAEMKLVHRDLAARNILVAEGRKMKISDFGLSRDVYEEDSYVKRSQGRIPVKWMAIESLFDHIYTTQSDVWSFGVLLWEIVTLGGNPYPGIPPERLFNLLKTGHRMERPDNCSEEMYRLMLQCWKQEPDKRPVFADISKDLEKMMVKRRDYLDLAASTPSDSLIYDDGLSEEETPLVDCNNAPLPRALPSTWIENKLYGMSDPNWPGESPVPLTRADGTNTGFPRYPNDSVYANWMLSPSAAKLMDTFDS

| Structure (SMILES) | target | test | conditions | scale | endpoint | result |
| --- | --- | --- | --- | --- | --- | --- |
| COc1ccc(NC(=O)Nc2ccc3c(c2)C(=O)N(C(C)CO)CC(C)C(CN(C)Cc2ccc4c(c2)OCO4)O3)cc1 (centres unmarked) | RET | kinase activity, KinaseProfiler | 0.03 µM, species human | reference: control | remaining activity | 107% |
| Cc1cccc(O[C@H]2CCC[C@@H](C(C)CNCc3ccncc3)C2)c1 (relative stereo) | RET | cell-free assay | 10 µM |  | inhibition | -3% |
| O=C=[N][Ru-4]123([n]4c5ccc(O)cc5c5c6c(c7cc(F)c[n+]1c7c54)C(=O)NC6=O)[S+]1CC[S+]2CC[S+]3CC1 (centres unmarked) | RET (Homo sapiens, UniProt P07949, V804L) | enzyme activity | 100 nM, human enzyme, added: 10 µM ATP | reference: untreated | remaining activity | 38% |
| NC(=O)C[C@H]1CCc2sc3ncnc(O[C@H]4CC[C@H](N5CCOCC5)CC4)c3c21 | RET | enzyme activity, inhibitor | 10 µM |  | inhibition | 1% |
| C=CC(=O)Nc1cccc(-c2cnc3[nH]cc(C(=O)NC(C)(C)C)c3n2)c1 | RET | enzyme activity, inhibitor | 0.1 µM |  | inhibition | 28% |
| COc1c(OCCCN2CCOCC2)ccc2c1N=C(NC(=O)c1cnc(N)nc1)N1CCN=C21 | RET | kinase activity, inhibitor | 1 µM | reference: untreated control | remaining activity | 109% |
| COCC12C(=O)NC3C4(C(OC)CC1O)C1CC5(O)C(OC)C(O)C(OC(C)=O)(C1C5OC(=O)c1ccccc1)C3(O)C(OC)C24 (centres unmarked) | RET | kinase activity, inhibitor, ProQinase kinase profiling | 25 µM | reference: control | remaining activity | 106% and 111% |
| CN1CCN(Cc2ccc(-c3ccc(CO[C@H]4CCC[C@@H]4NC(=O)c4cc(-c5cnn(C)c5)cnc4N)cc3)cc2)CC1 | RET (Homo sapiens, UniProt P07949, V804M) | enzyme activity, inhibitor | 0.1 µM |  | inhibition | -3% |
| CCn1cc(C(=O)O)c(=O)c2c(N)c(F)c(NC3CCCCC3)cc21 | RET | kinase activity | 0.1 µM, added: ATP at Km |  | inhibition | 8.6% |
| O=C(Nc1ccc(Oc2ncnc3[nH]cc(-c4ccccc4)c23)c(F)c1)c1c2n(n(-c3cc(F)ccc3F)c1=O)CCCC2 | RET | enzyme activity, inhibitor | 0.5 µM |  | inhibition | 17% |
| Nc1ncc(-c2cc(-c3cnn(CC(F)(F)F)c3)ncc2F)nc1C(=O)NC1CNCC(F)C1 (centres unmarked) | RET | enzyme activity | 1 µM | reference: DMSO control | remaining activity | 85.2% |
